Measured values gathered from unrelated publications.
Protocols differ between the studies behind these lines.
Uncharacterized protein: Uncharacterized protein (Trypanosoma brucei brucei, UniProt Q386Q8)
TDP1: Tyrosyl-DNA phosphodiesterase 1 (TDP1, Homo sapiens, UniProt Q9NUW8)
Sequence of UniProt Q9NUW8 (whole entry, looked up): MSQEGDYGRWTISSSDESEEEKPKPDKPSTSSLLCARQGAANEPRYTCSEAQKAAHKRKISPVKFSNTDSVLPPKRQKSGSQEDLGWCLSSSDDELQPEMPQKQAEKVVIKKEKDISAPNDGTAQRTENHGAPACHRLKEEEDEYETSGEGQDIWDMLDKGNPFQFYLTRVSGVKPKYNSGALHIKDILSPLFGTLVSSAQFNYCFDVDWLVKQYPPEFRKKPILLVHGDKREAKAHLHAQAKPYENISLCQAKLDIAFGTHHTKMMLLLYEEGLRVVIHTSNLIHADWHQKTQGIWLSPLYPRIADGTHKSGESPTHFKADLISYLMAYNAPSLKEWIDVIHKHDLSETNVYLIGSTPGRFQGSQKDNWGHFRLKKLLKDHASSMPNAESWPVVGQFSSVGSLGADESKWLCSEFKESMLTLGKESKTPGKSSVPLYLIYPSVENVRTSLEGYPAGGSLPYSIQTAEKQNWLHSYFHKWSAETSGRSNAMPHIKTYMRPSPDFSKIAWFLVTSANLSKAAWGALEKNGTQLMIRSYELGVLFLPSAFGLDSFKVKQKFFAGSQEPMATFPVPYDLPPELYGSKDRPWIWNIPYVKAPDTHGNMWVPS
ppa: Inorganic pyrophosphatase (ppa, Escherichia coli, UniProt P0A7A9)
Sequence of UniProt P0A7A9 (whole entry, looked up): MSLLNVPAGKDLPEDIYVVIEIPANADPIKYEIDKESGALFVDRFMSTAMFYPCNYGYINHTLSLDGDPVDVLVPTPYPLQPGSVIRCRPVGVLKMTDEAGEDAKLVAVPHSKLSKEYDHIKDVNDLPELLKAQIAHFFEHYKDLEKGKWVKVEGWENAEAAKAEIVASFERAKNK
Sequence of UniProt P22310 (whole entry, looked up): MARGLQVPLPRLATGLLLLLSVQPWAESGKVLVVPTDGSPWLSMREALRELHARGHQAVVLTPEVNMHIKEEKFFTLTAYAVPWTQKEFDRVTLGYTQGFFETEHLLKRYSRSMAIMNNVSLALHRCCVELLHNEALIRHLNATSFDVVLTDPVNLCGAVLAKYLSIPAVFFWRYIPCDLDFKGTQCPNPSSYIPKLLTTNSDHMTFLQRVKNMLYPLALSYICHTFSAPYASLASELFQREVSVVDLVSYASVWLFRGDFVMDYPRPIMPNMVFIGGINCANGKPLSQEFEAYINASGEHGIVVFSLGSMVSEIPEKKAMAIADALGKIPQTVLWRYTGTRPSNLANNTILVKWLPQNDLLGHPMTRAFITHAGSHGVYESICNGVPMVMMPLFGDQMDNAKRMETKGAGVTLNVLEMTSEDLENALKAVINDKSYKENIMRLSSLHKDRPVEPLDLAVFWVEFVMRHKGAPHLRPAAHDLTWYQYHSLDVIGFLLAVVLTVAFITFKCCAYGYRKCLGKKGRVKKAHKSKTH
Sequence of UniProt Q15391 (whole entry, unmodified, looked up): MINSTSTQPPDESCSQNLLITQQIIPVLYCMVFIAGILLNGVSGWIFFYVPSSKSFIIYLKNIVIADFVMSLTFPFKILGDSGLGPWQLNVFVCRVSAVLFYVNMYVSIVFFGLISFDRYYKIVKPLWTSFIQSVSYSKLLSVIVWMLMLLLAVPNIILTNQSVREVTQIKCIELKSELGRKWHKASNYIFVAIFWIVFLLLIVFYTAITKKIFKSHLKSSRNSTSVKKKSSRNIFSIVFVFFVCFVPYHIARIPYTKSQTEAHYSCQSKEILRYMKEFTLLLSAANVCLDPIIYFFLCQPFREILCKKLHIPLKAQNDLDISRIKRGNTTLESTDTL
Sequence of UniProt Q06180 (whole entry, looked up): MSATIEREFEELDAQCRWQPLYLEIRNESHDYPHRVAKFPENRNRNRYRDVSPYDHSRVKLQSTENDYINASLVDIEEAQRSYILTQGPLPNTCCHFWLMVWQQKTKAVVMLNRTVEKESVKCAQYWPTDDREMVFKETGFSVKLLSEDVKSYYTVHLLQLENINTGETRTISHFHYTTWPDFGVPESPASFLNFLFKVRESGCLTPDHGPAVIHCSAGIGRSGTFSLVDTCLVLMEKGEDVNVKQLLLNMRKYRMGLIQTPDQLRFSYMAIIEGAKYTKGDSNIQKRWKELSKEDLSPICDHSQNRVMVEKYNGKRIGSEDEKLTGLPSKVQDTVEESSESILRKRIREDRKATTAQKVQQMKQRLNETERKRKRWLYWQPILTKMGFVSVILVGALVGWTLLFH
Sequence of UniProt P41146 (whole entry, unmodified, looked up): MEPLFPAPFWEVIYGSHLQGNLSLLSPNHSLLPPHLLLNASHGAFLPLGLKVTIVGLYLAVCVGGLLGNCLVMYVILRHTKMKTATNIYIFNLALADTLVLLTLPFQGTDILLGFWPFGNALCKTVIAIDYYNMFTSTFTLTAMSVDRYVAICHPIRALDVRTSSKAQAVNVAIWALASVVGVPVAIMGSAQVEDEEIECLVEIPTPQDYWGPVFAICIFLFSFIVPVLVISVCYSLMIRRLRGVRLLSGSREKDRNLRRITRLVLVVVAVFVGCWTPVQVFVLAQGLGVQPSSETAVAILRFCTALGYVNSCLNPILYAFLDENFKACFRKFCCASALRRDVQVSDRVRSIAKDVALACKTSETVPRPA
Sequence of UniProt Q9UKP6 (whole entry, looked up): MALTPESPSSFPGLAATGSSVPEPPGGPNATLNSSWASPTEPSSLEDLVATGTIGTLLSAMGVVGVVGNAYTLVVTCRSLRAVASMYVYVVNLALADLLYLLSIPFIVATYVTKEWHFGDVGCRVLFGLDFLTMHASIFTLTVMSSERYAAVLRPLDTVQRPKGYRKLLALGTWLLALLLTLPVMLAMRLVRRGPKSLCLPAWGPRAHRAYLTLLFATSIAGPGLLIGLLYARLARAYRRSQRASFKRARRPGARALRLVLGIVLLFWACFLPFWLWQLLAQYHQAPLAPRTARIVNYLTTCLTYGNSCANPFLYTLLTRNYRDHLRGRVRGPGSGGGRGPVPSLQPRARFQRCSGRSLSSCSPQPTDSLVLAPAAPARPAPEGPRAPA
Sequence of UniProt O09047 (whole entry, looked up): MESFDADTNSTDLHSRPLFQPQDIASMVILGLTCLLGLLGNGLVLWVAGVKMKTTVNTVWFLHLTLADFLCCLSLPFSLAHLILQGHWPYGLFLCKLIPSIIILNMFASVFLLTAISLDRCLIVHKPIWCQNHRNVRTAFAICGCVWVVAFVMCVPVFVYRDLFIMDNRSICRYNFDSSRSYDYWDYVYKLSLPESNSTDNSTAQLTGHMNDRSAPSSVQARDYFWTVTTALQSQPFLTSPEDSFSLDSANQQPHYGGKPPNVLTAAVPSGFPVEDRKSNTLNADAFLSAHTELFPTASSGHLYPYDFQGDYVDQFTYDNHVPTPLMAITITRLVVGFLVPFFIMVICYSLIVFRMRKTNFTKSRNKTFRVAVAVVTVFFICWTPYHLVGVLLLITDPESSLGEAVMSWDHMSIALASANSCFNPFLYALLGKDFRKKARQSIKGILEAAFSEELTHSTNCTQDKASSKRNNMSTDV
Sequence of UniProt P23458 (whole entry, looked up): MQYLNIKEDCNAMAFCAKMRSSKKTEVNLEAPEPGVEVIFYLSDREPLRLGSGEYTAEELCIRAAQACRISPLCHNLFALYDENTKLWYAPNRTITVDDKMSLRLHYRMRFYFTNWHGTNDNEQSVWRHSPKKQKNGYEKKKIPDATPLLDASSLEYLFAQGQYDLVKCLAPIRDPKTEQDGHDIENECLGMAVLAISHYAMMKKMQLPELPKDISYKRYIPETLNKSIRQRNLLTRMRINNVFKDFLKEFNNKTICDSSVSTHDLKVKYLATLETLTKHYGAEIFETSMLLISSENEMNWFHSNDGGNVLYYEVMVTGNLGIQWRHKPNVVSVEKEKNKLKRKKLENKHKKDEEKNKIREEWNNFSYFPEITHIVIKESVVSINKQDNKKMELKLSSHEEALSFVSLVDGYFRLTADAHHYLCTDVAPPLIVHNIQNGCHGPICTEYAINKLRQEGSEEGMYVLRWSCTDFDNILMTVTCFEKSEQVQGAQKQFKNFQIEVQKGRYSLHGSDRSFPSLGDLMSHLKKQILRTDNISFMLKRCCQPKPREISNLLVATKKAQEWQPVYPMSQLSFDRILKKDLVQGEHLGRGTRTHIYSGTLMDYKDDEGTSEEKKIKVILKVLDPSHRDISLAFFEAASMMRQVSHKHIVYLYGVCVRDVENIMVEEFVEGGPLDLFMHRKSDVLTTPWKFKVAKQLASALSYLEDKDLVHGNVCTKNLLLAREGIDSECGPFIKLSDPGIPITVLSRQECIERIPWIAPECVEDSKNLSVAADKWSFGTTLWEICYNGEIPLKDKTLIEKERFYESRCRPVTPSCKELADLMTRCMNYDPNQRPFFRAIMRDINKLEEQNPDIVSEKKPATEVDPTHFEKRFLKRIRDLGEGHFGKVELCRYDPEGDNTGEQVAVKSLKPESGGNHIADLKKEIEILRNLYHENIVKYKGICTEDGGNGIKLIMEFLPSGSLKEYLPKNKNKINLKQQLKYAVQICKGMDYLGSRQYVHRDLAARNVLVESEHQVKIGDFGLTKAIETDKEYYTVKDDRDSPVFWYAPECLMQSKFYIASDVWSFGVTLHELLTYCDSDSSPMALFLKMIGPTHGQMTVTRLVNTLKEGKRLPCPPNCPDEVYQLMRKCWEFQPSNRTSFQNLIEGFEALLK

`C[N+](C)(CCCN1c2ccccc2CCc2ccc(Cl)cc21)CC(=O)c1ccccc1` gave an IC50 of 64300 nM (Uncharacterized protein; enzyme activity, inhibitor, coupled colorimetric; with: E. coli pyrophosphatase coupling).
With `COc1cc(C=NOCc2ccc3nc(-c4ccccc4)c(Nc4ccc(C(=O)O)cc4)n3c2)c(O)c(CN2CCOCC2)c1` (mixture of isomers) the inhibition was 9.9% (TDP1; enzyme activity, inhibitor; 100 µM, unpurified compound).
For `Cc1c[nH]c2nccc(-c3ccc(C(=O)N[C@@H]4c5c(F)cc(C(F)F)cc5C[C@@H]4O)cn3)c12`, the Kd was 675 nM (Tyrosine-protein kinase JAK1, JH1 (JAK1, Homo sapiens, UniProt P23458); binding, competition with immobilised ligand).
With `CC(=O)OC1CCC2(C)C(CCC3(C)C2CC=C2C4C(C)C(C)CCC4(C(=O)O)CCC23C)C1(C)C` (centres unmarked) the Ki was 640 nM (UDP-glucuronosyltransferase 1A4 (UGT1A4, Homo sapiens, UniProt P22310); enzyme activity, inhibitor).
For `O=C(NCCCN1CCC2(CC1)OCc1ccccc12)C1CCCN1Cc1ccccc1` (centres unmarked), the Ki was 0.3 nM (Nociceptin receptor (OPRL1, Homo sapiens, UniProt P41146, I219A)).
`O=C(CSc1nnc(-c2ccco2)c(-c2ccco2)n1)c1cccs1` gave an IC50 of 85400 nM (Uncharacterized protein; enzyme activity, inhibitor, coupled colorimetric; with: E. coli pyrophosphatase coupling).
`Cn1c(=O)n(C2CCC(=O)NC2=O)c2ccc(C3CCN(CC(=O)Nc4cccc(CS(=O)(=O)N5CC[C@H](Nc6cccc(-c7sc(C(=O)O)c(OCC(=O)O)c7Cl)c6)CC5(C)C)c4)CC3)cc21` (some centres unmarked) gave a DC50 of 5 nM (Tyrosine-protein phosphatase non-receptor type 2 (Ptpn2, Mus musculus, UniProt Q06180); degrader, Western blot; B16-F10; 24 h).
`COc1ccc(OC)c(C2=Nn3c(nnc3-c3ccc(Cl)cc3)SC2)c1` has an IC50 of greater than 100000 nM (ppa; enzyme activity, inhibitor).
For `NCCCC[C@H](NC(=O)[C@H](C/C=C/C[C@H](NC(=O)[C@@H]1CCCN1)C(=O)N[C@@H](CCCCN)C(=O)NCCCN)NC(=O)[C@@H]1CCCN1)C(=O)NCCCN`, the Kd was 303 nM (HIV-1 frameshift site RNA; SPR).
`CC(C)[C@H](NC(=O)[C@@H]1CSSC(C)(C)[C@H](NC(=O)[C@@H](N)CC(=O)O)C(=O)N[C@@H](Cc2ccccc2)C(=O)N[C@H](Cc2c[nH]c3ccccc23)C(=O)N[C@@H](CCCN)C(=O)N[C@@H](Cc2ccc(O)cc2)C(=O)N1)C(=O)O` gave an EC50 of 8.67 nM (Urotensin-2 receptor (UTS2R, Homo sapiens, UniProt Q9UKP6); calcium signal, agonist, fluorescence).
For `CCc1nc2cc3ccccc3cc2cc1C(=O)N1CCC[C@H]1C(=O)N[C@@H](C/C=C/C[C@H](NC(=O)[C@@H]1CCCN1C(=O)c1cc2cc3ccccc3cc2nc1CC)C(=O)N[C@@H](CCCCN)C(=O)NCCCN)C(=O)N[C@@H](CCCCN)C(=O)NCCCN`, the Kd was 795 nM (HIV-1 frameshift site RNA; SPR).
With `O=c1ccn([C@@H]2O[C@H](COP(=O)(O)CP(=O)(O)O)[C@@H](O)[C@H]2O)c(=S)[nH]1` the EC50 was 165 nM (P2Y purinoceptor 14 (P2RY14, Homo sapiens, UniProt Q15391, V93G); calcium mobilisation, agonist; cells with Gαqi5; receptor mutant V93G).
For `O=C(O)c1ccc(Nc2c(-c3ccc(CON=Cc4ccc(-c5nc6ccccc6s5)o4)cc3)nc3cc(-c4ccccc4)ccn23)cc1`, the inhibition was 33.2% (TDP1; enzyme activity, inhibitor; 100 µM, unpurified compound).
With `Cc1n[nH]c(C)c1C(=O)CC1(O)C(=O)Nc2cc(Cl)cc(Cl)c21` (centres unmarked) the IC50 was greater than 100000 nM (ppa; enzyme activity, inhibitor).
For `CC(C)C[C@H](NC(=O)[C@@H](N)[C@@H](C)O)C(=O)N[C@@H](CCC(N)=O)C(=O)N1CCC[C@H]1C(=O)N1CCC[C@H]1C(=O)N[C@@H](C)C(=O)N[C@@H](CO)C(=O)N[C@@H](CO)C(=O)N[C@@H](CCCNC(=N)N)C(=O)N[C@@H](CCCNC(=N)N)C(=O)N[C@@H](CCCNC(=N)N)C(=O)N[C@@H](Cc1c[nH]cn1)C(=O)N[C@@H](Cc1ccccc1)C(=O)N[C@@H](Cc1c[nH]cn1)C(=O)N[C@@H](Cc1c[nH]cn1)C(=O)N[C@@H](C)C(=O)N[C@@H](CC(C)C)C(=O)N1CCC[C@H]1C(=O)N1CCC[C@H]1C(=O)N[C@@H](C)C(=O)N[C@@H](CCCNC(=N)N)C(=O)O`, the EC50 was 15.8 nM (C3a anaphylatoxin chemotactic receptor (C3ar1, Mus musculus, UniProt O09047); cAMP response, agonist, GloSensor).
The IC50 of `Cc1ccc2c(c1Br)C(O)(CC(=O)c1ccc(F)cc1)C(=O)N2` (centres unmarked) is reported as greater than 100000 nM (Uncharacterized protein; inhibitor, coupled colorimetric; Trypanosoma brucei).
For `Cc1nn(-c2cccc(N)c2)c(=O)c2cnc(Nc3ccc(N4CCNCC4)cc3)nc12`, the IC50 was greater than 10000 nM (Proto-oncogene tyrosine-protein kinase Src, N1 isoform (SRC, Homo sapiens, UniProt P12931); inhibitor, SelectScreen kinase).

A few entries again:
For `O=C(NCCCN1CCC2(CC1)OCc1ccccc12)C1CCCN1Cc1ccccc1` (centres unmarked), the Ki was 0.3 nM (Nociceptin receptor (OPRL1, Homo sapiens, UniProt P41146, I219A)).
With `O=c1ccn([C@@H]2O[C@H](COP(=O)(O)CP(=O)(O)O)[C@@H](O)[C@H]2O)c(=S)[nH]1` the EC50 was 165 nM (P2Y purinoceptor 14 (P2RY14, Homo sapiens, UniProt Q15391, V93G); calcium mobilisation, agonist; cells with Gαqi5; receptor mutant V93G).
